Published values collected from several papers.
Numbers after ± are the reported error.
indolicidin: indolicidin (Bos taurus, UniProt P33046)
Chain of UniProt P33046 (whole entry, looked up): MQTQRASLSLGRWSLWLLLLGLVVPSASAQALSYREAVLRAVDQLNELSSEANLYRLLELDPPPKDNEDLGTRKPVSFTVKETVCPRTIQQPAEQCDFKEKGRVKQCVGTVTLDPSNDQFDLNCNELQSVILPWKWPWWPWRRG
PCSK9: PCSK9 fragment (Homo sapiens)
T1: HNRNPR full length 1-636 (Homo sapiens); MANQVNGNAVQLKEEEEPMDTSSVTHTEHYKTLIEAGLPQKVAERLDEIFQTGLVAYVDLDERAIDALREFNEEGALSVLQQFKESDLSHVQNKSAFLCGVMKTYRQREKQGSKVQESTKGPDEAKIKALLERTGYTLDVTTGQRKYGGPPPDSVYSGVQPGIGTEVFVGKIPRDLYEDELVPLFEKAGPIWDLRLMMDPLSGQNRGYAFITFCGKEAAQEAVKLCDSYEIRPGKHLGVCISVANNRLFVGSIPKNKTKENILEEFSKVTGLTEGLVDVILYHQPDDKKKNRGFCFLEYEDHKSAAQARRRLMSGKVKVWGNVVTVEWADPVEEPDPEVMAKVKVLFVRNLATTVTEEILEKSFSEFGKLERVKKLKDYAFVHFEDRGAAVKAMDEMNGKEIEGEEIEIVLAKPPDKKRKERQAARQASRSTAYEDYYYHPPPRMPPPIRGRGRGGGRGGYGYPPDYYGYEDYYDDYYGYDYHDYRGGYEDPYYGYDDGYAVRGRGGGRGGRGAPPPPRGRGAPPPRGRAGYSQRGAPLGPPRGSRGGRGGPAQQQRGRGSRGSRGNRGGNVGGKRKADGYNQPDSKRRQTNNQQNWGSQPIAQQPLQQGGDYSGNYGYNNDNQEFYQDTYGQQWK
B1: UGT1A9 (Homo sapiens, UniProt O60656); chain GKLLVVPMDGSHWFTMRSVVEKLILRGHEVVVVMPEVSWQLGRSLNCTVKTYSTSYTLEDLDREFKAFAHAQWKAQVRSIYSLLMGSYNDIFDLFFSNCRSLFKDKKLVEYLKESSFDAVFLDPFDNCGLIVAKYFSLPSVVFARGILCHYLEEGAQCPAPLSYVPRILLGFSDAMTFKERVRNHIMHLEEHLLCHRFFKNALEIASEILQTPVTEYDLYSHTSIWLLRTDFVLDYPKPVMPNMIFIGGINCHQGKPLPMEFEAYINASGEHGIVVFSLGSMVSEIPEKKAMAIADALGKIPQTVLWRYTGTRPSNLANNTILVKWLPQNDLLGHPMTRAFITHAGSHGVYESICNGVPMVMMPLFGDQMDNAKRMETKGAGVTLNVLEMTSEDLENALKAVINDKSYKENIMRLSSLHKDRPVEPLDLAVFWVEFVMRHKGAPHLRPAAHDLTWYQYHSLDVIGFLLAVVLTVAFITFKCCAYGYRKCLGKKGRVKKAHKSKTH
Chain of UniProt Q15717 (whole entry, looked up): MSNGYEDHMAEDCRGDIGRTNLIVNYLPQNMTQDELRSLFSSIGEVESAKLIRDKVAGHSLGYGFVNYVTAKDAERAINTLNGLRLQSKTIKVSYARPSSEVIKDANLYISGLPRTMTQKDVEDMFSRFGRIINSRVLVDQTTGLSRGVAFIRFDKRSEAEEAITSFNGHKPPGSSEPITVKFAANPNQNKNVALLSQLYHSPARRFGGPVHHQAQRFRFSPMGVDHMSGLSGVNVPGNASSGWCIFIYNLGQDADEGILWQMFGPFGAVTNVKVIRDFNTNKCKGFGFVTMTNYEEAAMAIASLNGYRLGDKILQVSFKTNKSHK
Chain of UniProt P19525 (whole entry, looked up): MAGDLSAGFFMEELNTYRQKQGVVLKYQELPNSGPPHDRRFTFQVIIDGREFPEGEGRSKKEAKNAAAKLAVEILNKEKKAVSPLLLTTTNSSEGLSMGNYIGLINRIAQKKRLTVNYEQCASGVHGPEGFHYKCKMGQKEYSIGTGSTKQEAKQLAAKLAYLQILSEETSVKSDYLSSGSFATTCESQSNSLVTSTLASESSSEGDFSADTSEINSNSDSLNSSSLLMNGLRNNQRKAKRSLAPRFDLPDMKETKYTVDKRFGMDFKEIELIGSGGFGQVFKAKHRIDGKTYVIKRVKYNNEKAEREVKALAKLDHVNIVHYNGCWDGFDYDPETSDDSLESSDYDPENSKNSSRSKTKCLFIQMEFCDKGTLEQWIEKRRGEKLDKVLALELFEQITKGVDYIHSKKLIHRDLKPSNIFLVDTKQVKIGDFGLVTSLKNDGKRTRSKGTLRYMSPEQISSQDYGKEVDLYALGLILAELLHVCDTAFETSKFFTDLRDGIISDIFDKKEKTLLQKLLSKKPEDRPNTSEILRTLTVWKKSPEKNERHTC
Chain of UniProt P16422 (whole entry, looked up): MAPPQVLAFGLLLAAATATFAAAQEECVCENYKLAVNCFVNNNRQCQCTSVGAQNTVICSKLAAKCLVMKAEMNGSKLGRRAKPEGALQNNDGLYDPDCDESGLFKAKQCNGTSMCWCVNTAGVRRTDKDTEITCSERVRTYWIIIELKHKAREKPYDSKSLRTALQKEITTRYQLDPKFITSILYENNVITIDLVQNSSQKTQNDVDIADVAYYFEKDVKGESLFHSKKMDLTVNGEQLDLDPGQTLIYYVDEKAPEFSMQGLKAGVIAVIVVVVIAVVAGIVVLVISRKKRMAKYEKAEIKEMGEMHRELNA
Chain of UniProt Q13308 (whole entry, looked up): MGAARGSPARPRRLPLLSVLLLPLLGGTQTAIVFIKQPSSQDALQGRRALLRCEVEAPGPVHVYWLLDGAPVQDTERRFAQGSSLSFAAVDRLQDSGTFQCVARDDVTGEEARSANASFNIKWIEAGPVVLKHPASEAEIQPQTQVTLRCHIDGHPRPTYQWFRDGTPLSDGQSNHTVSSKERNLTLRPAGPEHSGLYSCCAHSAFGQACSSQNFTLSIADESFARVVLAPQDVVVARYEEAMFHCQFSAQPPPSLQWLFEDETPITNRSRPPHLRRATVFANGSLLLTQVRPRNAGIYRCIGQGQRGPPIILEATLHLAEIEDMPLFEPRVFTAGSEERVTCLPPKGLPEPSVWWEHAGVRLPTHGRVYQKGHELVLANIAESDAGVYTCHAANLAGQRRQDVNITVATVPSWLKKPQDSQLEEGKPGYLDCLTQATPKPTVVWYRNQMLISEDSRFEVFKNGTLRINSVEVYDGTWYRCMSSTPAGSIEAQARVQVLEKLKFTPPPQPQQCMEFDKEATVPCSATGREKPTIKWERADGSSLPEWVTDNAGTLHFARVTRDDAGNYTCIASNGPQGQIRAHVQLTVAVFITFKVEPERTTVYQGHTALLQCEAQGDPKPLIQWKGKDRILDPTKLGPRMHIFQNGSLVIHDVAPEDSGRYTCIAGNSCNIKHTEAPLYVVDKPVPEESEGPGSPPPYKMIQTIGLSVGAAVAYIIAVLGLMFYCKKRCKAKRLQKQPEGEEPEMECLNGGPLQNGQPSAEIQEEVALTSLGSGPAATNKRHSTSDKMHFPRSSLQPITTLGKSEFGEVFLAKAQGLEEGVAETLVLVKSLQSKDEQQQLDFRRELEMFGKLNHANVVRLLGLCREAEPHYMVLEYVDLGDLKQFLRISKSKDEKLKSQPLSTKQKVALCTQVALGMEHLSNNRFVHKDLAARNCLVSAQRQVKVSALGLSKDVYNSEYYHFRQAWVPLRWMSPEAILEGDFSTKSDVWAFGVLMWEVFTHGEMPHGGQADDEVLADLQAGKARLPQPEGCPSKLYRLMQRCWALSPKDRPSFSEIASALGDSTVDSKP
Chain of UniProt P16455 (whole entry, unmodified, looked up): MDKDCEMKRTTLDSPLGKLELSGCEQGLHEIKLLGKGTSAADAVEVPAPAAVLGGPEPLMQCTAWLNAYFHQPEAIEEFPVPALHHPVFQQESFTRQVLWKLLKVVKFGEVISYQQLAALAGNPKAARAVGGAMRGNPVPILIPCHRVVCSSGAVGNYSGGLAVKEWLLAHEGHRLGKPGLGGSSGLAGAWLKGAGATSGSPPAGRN
Chain of UniProt Q8MQJ9 (whole entry, looked up): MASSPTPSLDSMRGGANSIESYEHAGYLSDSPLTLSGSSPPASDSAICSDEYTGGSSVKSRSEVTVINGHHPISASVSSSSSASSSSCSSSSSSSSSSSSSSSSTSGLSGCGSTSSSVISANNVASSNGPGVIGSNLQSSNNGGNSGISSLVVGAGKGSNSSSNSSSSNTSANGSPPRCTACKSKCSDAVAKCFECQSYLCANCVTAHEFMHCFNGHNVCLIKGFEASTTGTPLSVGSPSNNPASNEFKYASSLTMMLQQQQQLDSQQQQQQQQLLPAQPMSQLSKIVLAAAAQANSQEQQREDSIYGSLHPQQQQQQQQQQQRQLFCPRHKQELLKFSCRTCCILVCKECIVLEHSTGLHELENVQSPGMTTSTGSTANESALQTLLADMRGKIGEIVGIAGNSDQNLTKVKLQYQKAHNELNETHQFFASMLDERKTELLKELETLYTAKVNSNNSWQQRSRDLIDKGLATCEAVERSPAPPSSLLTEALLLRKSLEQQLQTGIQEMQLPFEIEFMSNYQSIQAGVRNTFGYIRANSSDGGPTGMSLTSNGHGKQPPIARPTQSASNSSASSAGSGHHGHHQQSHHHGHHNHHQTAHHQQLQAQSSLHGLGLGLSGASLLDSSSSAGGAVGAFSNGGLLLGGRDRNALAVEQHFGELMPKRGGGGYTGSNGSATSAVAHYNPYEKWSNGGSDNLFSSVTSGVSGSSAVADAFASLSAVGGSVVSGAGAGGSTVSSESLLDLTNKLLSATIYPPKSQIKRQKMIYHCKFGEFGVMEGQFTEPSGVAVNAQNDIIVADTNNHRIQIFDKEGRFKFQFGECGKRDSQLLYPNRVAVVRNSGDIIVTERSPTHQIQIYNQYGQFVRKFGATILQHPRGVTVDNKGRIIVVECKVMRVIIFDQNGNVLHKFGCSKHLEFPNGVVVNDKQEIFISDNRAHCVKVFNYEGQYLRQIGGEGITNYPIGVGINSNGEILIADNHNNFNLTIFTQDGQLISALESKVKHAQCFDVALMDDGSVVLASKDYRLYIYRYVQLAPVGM
Chain of UniProt Q8TCS8 (whole entry, unmodified, looked up): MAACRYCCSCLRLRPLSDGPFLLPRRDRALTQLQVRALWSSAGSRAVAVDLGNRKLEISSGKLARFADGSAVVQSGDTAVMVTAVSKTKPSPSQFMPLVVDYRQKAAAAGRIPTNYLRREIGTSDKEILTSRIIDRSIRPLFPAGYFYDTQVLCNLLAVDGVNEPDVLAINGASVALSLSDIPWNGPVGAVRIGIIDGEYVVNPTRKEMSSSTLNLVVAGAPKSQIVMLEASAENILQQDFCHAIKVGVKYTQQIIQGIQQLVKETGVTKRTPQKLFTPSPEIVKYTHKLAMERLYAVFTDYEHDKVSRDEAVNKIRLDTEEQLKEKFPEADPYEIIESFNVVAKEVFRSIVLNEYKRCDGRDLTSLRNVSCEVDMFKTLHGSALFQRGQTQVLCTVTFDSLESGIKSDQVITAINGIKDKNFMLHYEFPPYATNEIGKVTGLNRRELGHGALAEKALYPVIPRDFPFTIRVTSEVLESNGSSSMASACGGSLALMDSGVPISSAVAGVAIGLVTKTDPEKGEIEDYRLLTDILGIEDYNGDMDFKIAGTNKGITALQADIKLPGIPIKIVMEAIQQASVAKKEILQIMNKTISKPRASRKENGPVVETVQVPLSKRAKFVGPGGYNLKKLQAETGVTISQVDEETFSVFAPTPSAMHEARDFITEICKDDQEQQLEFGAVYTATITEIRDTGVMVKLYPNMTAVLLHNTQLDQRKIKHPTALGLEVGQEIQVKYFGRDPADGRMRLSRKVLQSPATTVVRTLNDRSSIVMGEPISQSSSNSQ

Substance = CATATATATCCCCATATATATG (DNA hairpin; hairpin, 9 bp stem, CCCC loop); tested on = indolicidin; assay = SPR; measurement = Kd; value = 39.8 µM
Substance = TGGGGAGGGTGGGGAGAGTGGGGAAGG (G-quadruplex DNA (Homo sapiens)); tested on = BG4 scFv; assay = SPRi; setting = K+ 100 mM; measurement = Kd; value = 0.246 µM
Substance = GAGUUGAGUUGAGUUGAGUUGAGUUGAGUUGAGUUGAGUUGAGUUGAGUUGAGUU (ssRNA; single strand); tested on = mtrB full length assumed T30I (Bacillus subtilis, UniProt P19466); assay = filter binding; setting = with: no tryptophan; measurement = Kd; value = 0.177 ± 0.02 µM
Substance = CGATGTCATCG (dsDNA; blunt, O6-dG interstrand cross-link, 4-carbon); tested on = MGMT full length assumed C145S (Homo sapiens, UniProt P16455); assay = EMSA; test system = double-stranded DNA, one strand shown; setting = monomeric Kd; measurement = Kd; value = 9.87 ± 1.22 µM
Substance = GGGAGGGAGGGAGGGA (structured RNA; G-quadruplex); tested on = T1, HNRNPR full length 1-636 (Homo sapiens); assay = fluorescence polarization; setting = with: polyN competitor 0 µM; measurement = Kd; value = 0.0049 ± 0.0033 µM
Substance = GGGGAAUCAAAAAUUUAUUUUUUACACGGAAACGAUGCCACAGUUGACUGAACCUGUCUUCUAACAGUAGUUAAUUGCCAGUAUUUCAAACAAGAUUUGAAAUACGAGUUUCCCAGAAUAAUUUAUUUGGACAGGAUAGGAAGUCCGAUUUCUGUGUUGUCUCAAACGAGGCGAUAGAAUUGGGAUGUCGAAGAAAGUCUACAUUAGAAUUCGAGCU (structured RNA (Saccharomyces cerevisiae); two hairpins); tested on = CBF5/NOP10/GAR1 (Saccharomyces cerevisiae); assay = filter binding; measurement = Kd; value = 0.0003 ± 0.0001 µM
Substance = B1 (UGT1A9); tested on = CCCOC(=O)c1ccc(O)cc1; assay = steady-state kinetics; setting = pH 7.4, 37 °C; measurement = Vmax/Km; value = 30 µL/min/mg
Substance = CUGUGUUUGUAUGUCUUGAAAAGAAUGUCAGUUAUUUAUUGAAAGUCGUCUUUCAUAUUGUAUGGUCAACACGCACGUGUUGACGCUUCCCUUGGACAUUUUGUGUCUAGUUGGUAGGGCAUAAUGCCCUUUUACAUUCUUUAACCCUGUUUCUCCUGGUCUCGUCUCGCUCGGGACAGAGACGUUCAAAGGACUGUUACAAAUGAAGUAAAAAUAAAAG (ssRNA (Mus musculus)); tested on = Traf3ip2 fragment (Mus musculus); assay = EMSA; measurement = Kd; value = 0.0502 ± 0.0078 µM
Substance = ATACCAGCTTATTCAATTAGTCACACTTAGAGTTCTAACTGCTGCGCCGCCGGGAAAATACTGTACGGTTAGATAGTAAGTGCAATCT (ssDNA; 5' amino linker, HPG conjugate); tested on = PTK7 31-1070 (Homo sapiens, UniProt Q13308); assay = radioligand saturation binding; test system = MDA-MB-468; setting = 37 °C, not purified; measurement = Kd; value = 0.00402 ± 0.0007 µM
Substance = GGCGGTCCCAGCGAGGCCGCCGATTTTUCGGCGGCCUCGCUGGGACCGCC (DNA:RNA chimera; hairpin, DNA 1-27, RNA 28-50); tested on = S9.6 scFv (Mus musculus); assay = SPR; measurement = Kd; value = 0.0008 ± 0.0002 µM
Substance = ATCCAGAGTGACGCAGCACGCAGCACCCGTGGTAGTGTATCAGGGAGACACTACGTGATGCAGCTTGAAATGGACACGGTGGCTTAGT (DNA; intramolecular fold); tested on = CD8A fragment (Homo sapiens); assay = flow cytometry; test system = CD8+ T cells; setting = apparent, not purified; measurement = Kd; value = 0.0183 ± 0.0046 µM
Substance = CGAATCAGATTGGACCAGCCACGTTACTGATTCTTCTACCGTTTTTGCCCCCGGCACCTTCTGGAGTCCAGATGTAGGTAG (XNA; 8 side-chain-functionalized building blocks); tested on = PCSK9; assay = SPR; measurement = Kd; value = 0.098 µM
Substance = GAGCGUAUCCGCUCUUUUUUUUUUUUUUUUUUUUUU (structured RNA; hairpin, 3' U20 tail); tested on = PNPT1 46-783 D713Y/S484A (Homo sapiens, UniProt Q8TCS8); assay = fluorescence polarization; setting = Mg2+ 2 mM; measurement = Kd; value = 0.581 ± 0.082 µM
Substance = CGCGCGCCGCACGUAUCCCUUUUCGCGUCGGCGCGCG (chimeric DNA/RNA; 2'-F C/U in RNA core, 5-methyl-dC, 20 kDa PEG); tested on = EPCAM 24-314 (Homo sapiens, UniProt P16422); assay = flow cytometry; test system = HT29; setting = not purified; measurement = Kd; value = 0.0518 µM
Substance = GGGAAGGGUUUAAACAGUUUGAAAUAUUCUGUCUUCAUUUCUGUAAUAGUUAAUAUCUGGCUGUCCUUUUUAUAAUGCAAAGUGAGAACUUUCCCUACUGUGUUUGAUAAAUGUUGUCCAGGUUCACUUGCCAAGAAUGUGUUGUCUAAAAUG (ssRNA); tested on = ELAVL1 full length assumed (Homo sapiens, UniProt Q15717); assay = SPR; measurement = Kd; value = 0.132 µM
Substance = AATTACATTGATAGAATTATTAGTTTTCUAAUAAUUCUAUCAAUGUAAUU (DNA:RNA chimera; hairpin, DNA 1-27, RNA 28-50); tested on = S9.6 scFv (Mus musculus); assay = SPR; measurement = Kd; value = 0.0006 ± 0.0001 µM
Substance = CGCGCGCGTTTTCGCGCGCG (DNA hairpin; hairpin, 8 bp stem, TTTT loop); tested on = indolicidin; assay = SPR; measurement = Kd; value = 42.2 µM
Substance = GGACGGAUUUAAUCGCCGUAGAAAAGCAUGUCAAAGCCGGAACCGUCCCGACGACGACGACGACGACGA / TCGTCGTCGTCGTCGTCGTCG (RNA/DNA hybrid; 2'-F-C, 2'-F-U RNA, 21-nt DNA anti-tail); tested on = EGFR fragment (Homo sapiens); assay = flow cytometry; test system = HeLa; setting = apparent, live cells, not purified; measurement = Kd; value = 0.019 ± 0.004 µM
Substance = DNA 1 TTCAGGTCAGAAGGGTTCTATCTCTGTTGGCCAGAATGTCCCTTTTATTACTGGTCGTGT / DNA 2 ACACGACCAGTAATAAAAGGGACATTCTGG (dsDNA; primer-template, 5' overhang, 5' amino C6 dT); tested on = RFC1/RFC2/RFC3/RFC4/RFC5 RFC1 284-861 (Saccharomyces cerevisiae); assay = fluorescence anisotropy; test system = double-stranded DNA; setting = no maltose, with: ATPgS 0.5 mM; measurement = Kd; value = 0.047 ± 0.01 µM
Substance = GGGAGAGGCAAGUCGUUCGGUCGCGUUCGCUGUCGUCGCGUCUUGUAUGCCACUGUACCC / GGGTACAGTGGCATACAAGACGCGACGACAGCGAACGCGACCGAACGACTTGCCTCTCCC (chimeric DNA/RNA duplex; blunt, strand 2 RNA 23-38); tested on = EIF2AK2 1-184 (Homo sapiens, UniProt P19525); assay = ITC; setting = 20 °C, weak sites, two-site fit, less reliable; measurement = Kd; value = 5 ± 1 µM
Substance = CGTGTCAGACTTTTGUCUGACACG (DNA-RNA chimera hairpin; hairpin, nt 1-14 DNA, 15-24 RNA, T4 loop); tested on = S9.6 scFv (Mus musculus); assay = SPR; measurement = Kd; value = 0.0005 ± 6e-05 µM
Substance = GGGAGACCUAGCCUCAUAUAAUCGUUGUCCAGAAUUGUAUAUAUUCGUAGCAUAAGUUUUCCAAACAUUAUUUUGUUGUCGAAAAUUGUACAUAAGCCAAUUAAGCCGCUAAUUCU (ssRNA); tested on = brat 756-1037 (Drosophila melanogaster, UniProt Q8MQJ9); assay = MST; measurement = Kd; value = 0.137 ± 0.0368 µM
Substance = GGGTCATTTGGCGCCTTTCGATCC (dsDNA; blunt, O6-methylguanine); tested on = MGMT 1-201 (Homo sapiens, UniProt P16455); assay = EMSA; test system = double-stranded DNA, one strand shown; setting = 20 °C, monomer-equivalent; measurement = Kd; value = 8.2 ± 1.1 µM
Substance = TGCTACCGTTGTTTACCCTGCCACCTTCTGGAGTCCAGATGTAGGTAG (XNA; side-chain nucleotides, 3' inverted dT); tested on = PCSK9; assay = SPR; measurement = Kd; value = 0.0068 µM
Substance = CCGCCTCCGGGAGAGCTG (dsDNA; blunt); tested on = NR3C1 417-506 K442A (Homo sapiens, UniProt P04150); assay = fluorescence polarization; test system = double-stranded DNA, one strand shown; setting = one-site fit; measurement = Kd; value = 5.14 ± 0.51 µM

A few entries again:
Substance = TGGGGAGGGTGGGGAGAGTGGGGAAGG (G-quadruplex DNA (Homo sapiens)); tested on = BG4 scFv; assay = SPRi; setting = K+ 100 mM; measurement = Kd; value = 0.246 µM
Substance = GGGGAAUCAAAAAUUUAUUUUUUACACGGAAACGAUGCCACAGUUGACUGAACCUGUCUUCUAACAGUAGUUAAUUGCCAGUAUUUCAAACAAGAUUUGAAAUACGAGUUUCCCAGAAUAAUUUAUUUGGACAGGAUAGGAAGUCCGAUUUCUGUGUUGUCUCAAACGAGGCGAUAGAAUUGGGAUGUCGAAGAAAGUCUACAUUAGAAUUCGAGCU (structured RNA (Saccharomyces cerevisiae); two hairpins); tested on = CBF5/NOP10/GAR1 (Saccharomyces cerevisiae); assay = filter binding; measurement = Kd; value = 0.0003 ± 0.0001 µM
